Results pooled from the literature.
Lines come from different studies, so protocols differ. ± gives the spread as reported.

SMILES | cell line | assay | conditions | IC50
Cc1ccc2nc(Cl)c(-c3nc4cc(Cl)c(Cl)cc4[nH]3)cc2c1 | L02 | cell growth or viability, MTT | 48 h | > 100 µM
N=C(N)NCCC[C@@H](N)C(=O)N[C@@H](CC(=O)N[C@H](Cc1ccccc1)C(=O)N[C@H](CC(=O)O)C(N)=O)c1ccc2ccccc2c1 | BT-474 | cell growth or viability, ATP luminescence | 72 h | > 100 µM
CC(=O)OC[C@H]1O[C@@H](NC(=O)NC(=O)/C=C/c2ccc(-c3ccccc3)cc2)[C@H](OC(C)=O)[C@@H](OC(C)=O)[C@@H]1OC(C)=O | human T-lymphocyte | cell growth or viability | 72 h | 110 µM
CC(C)C[C@@H]1NC(=O)[C@H](Cc2c[nH]c3ccccc23)NC(=O)CNC(=O)[C@@H]2CCCN2C(=O)[C@H]2CCCN2C(=O)[C@H]([C@@H](C)O)NC1=O | BT-474 | cell growth or viability, ATP luminescence | 72 h | > 100 µM
CC/C(=C(\c1ccc(O)cc1)c1ccc(OCCN(C)CCOCCOCCOCCOCCN(C)CCOc2ccc(/C(=C(/CC)c3ccccc3)c3ccc(O)cc3)cc2)cc1)c1ccccc1 | MCF7 (ER-positive) | cell growth | 96 h | 0.06 µM
Cc1cc2nc(-c3cc4cc5c(cc4nc3Cl)OCO5)[nH]c2cc1C | BEL-7404 | cell growth or viability, MTT | 48 h | > 100 µM
COc1ccc2cc3[n+](cc2c1OCc1cn(Cc2cccc(Cl)c2)nn1)CCc1cc2c(cc1-3)OCO2 | SMMC-7721 | cell growth or viability, MTT | – | 41.1 µM
CCOC(=O)C[C@H]1Oc2ccccc2C(=O)[C@]1(C)[N+](=O)[O-] | human Fibroblast | cell growth or viability, SRB | 96 h | > 100 µM
CC[C@H](C)[C@H](N)C(=O)Nc1ccc2nc(Cc3c[nH]c4ccccc34)[nH]c2c1 | NCI-H441 | cell growth or viability, ATP luminescence | 72 h | 27.7 µM
CC1(C)CCC(CN2CCN(c3ccc(C(=O)NS(=O)(=O)c4ccc(NCC5COCCO5)c([N+](=O)[O-])c4)c(N4CCCOc5nc6[nH]ccc6cc54)c3)CC2)=C(c2ccc(Cl)cc2)C1 (centres unmarked) | primary human CLL cells | apoptosis | no stroma | 8.1e-05 µM
CO[C@@H]1[C@@H](O[C@@H]2O[C@H](C)[C@@H](O[C@H]3C[C@@](C)(O)[C@@H](OC(=O)/C=C/c4ccc(C(F)(F)F)cc4)[C@H](C)O3)[C@H](N(C)C)[C@H]2O)[C@@H](CC=O)C[C@@H](C)[C@@H](O[C@H]2CC[C@H](N(C)C)[C@@H](C)O2)/C=C/C=C/C[C@@H](C)OC(=O)C[C@H]1O | GES1 | cell growth or viability, CCK-8 | 72 h | 2.34 µM
C=C1C(=O)OC2C1CCC1(C)CC1CCC1(C)OC21 (centres unmarked) | GBM6 | cell growth or viability, resazurin | – | 2.3 µM
CN1CCCNC(=O)CCC(=O)NCCCN(C)CCCNc2cccc3c2C(=O)c2cccc(c2C3=O)NCCC1 | Ca9-22 | cell growth or viability, CCK-8 | 48 h | > 20 µM
CC/C(=C(\c1ccc(O)cc1)c1ccc(OCCN(C)CCOCCOCCOCCOCCOCCOCCOCCOCCOCCOCCOCCN(C)CCOc2ccc(/C(=C(/CC)c3ccccc3)c3ccc(O)cc3)cc2)cc1)c1ccccc1 | MCF7 (ER-positive) | cell growth | 96 h | 0.01 µM
Cc1ccc2nc(Cl)c(-c3nc4cc(Br)ccc4[nH]3)cc2c1 | L02 | cell growth or viability, MTT | 48 h | > 100 µM
COC1=C(OC)C(O)C(CC=C(C)CCC=C(C)CCC=C(C)C(=O)O)C(C)C1=O (centres unmarked) | NCI-H441 | cell growth or viability, MTS | 72 h | > 25 µM
CC(C)c1cccc(C(C)C)c1-n1c2c([n+](-c3c(C(C)C)cccc3C(C)C)[c]1[Cu-][Cl])-c1cccc3cccc-2c13 | NTERA2 | cell growth or viability, MTT | 72 h | 4 µM
CCCCCCCCCCCCn1c(-c2cccnc2)nc(-c2ccc(C)cc2)c1-c1ccc(C)cc1 | BT-474 | cell growth or viability, SRB | 48 h | > 100 µM
CO[C@@H]1[C@@H](O[C@@H]2O[C@H](C)[C@@H](O[C@H]3C[C@@](C)(O)[C@@H](OC(=O)Cc4ccc(C(C)(C)C)cc4)[C@H](C)O3)[C@H](N(C)C)[C@H]2O)[C@@H](CC=O)C[C@@H](C)[C@@H](O[C@H]2CC[C@H](N(C)C)[C@@H](C)O2)/C=C/C=C/C[C@@H](C)OC(=O)C[C@H]1O | GES1 | cell growth or viability, CCK-8 | 72 h | 2.29 µM
CN(C)/C=C/C(=O)c1ccc2[nH]c3ncc(-c4ccc(N5CCN(C)CC5)cc4)cc3c2c1 | Ba/F3 NPM-ALK | cell proliferation, [3H]-thymidine incorporation | – | 0.39 µM
O=C(NCC1(c2nc(-c3ccccc3)cs2)CCOCC1)c1cccc(-c2noc(C(F)(F)F)n2)c1 | DHL4 | cell proliferation, CCK-8 | 5 days | > 10 µM
COc1ccc(-c2c(C#N)c(N)n(-c3nnc(NC(=O)c4ccccc4)s3)c(=O)c2C#N)cc1 | WI-38 fibroblasts | – | 48 h | 18.6 ± 1.4 µM
CC(=O)OC[C@H]1O[C@@H](NC(=O)/C=C/c2ccc(C(C)C)cc2)[C@H](OC(C)=O)[C@@H](OC(C)=O)[C@@H]1OC(C)=O | human T-lymphocyte | cell growth or viability | 72 h | 99 µM
CC(C)N(C[C@H]1O[C@@H](n2cnc3c(N)ncnc32)[C@H](O)[C@@H]1O)C1CC2CN(Cc3cc(F)cc(Br)c3)CC2C1 (some centres unmarked) | H460 wild type | cell growth | 72 h | > 100 µM
O=c1ccn([C@@H]2O[C@H](CSSc3ccccn3)[C@@H](O)[C@H](F)[C@H]2O)c(=O)[nH]1 | human Fibroblast | cell growth or viability | – | 9.2 µM

SMILES | cell line | assay | conditions | IC50
N#Cc1cccc(-c2ccc(=O)n(Cc3cccc(-c4ncc(OCC5CCN(CCC(=O)Nc6cccc7c6C(=O)N(C6CCC(=O)NC6=O)C7=O)CC5)cn4)c3)n2)c1 (centres unmarked) | EBC-1 | cell growth or viability, CCK-8 | 72 h | 0.00703 µM
CC(C)(C)N=[C](NCc1ccc(N)cc1)[AuH][Cl] | MRC5 | cell growth or viability | – | > 100 µM
CC(C)(C(=O)O)C1(O)CCCCC1 | LS174 | cell growth or viability | 72 h | > 200 µM
COc1c(O)cc2oc3c(Br)c(O)c(CC=C(C)C)c(O)c3c(=O)c2c1CC=C(C)C | SMMC-7721 | cell growth or viability | 48 h | 24.1 µM
CC(=O)[O][Pt]([Cl])([Cl])[O]C(=O)CCCc1ccccc1.N.N | BXPC-3 | cell growth or viability | – | 10.1 µM
C(=C\c1cnc2[nH]c3ccc(-c4ccc(CN5CCOCC5)cc4)cc3c2c1)/c1ccccc1 | Ba/F3 NPM-ALK | cell proliferation, [3H]-thymidine incorporation | – | 1.6 µM
Clc1cc2nc(-c3cc4ccccc4nc3Cl)[nH]c2cc1Cl | BEL-7404 | cell growth or viability, MTT | 48 h | 19.4 µM
C#CCN(CC(=O)O[C@H]1[C@H](C)O[C@@H](O[C@H]2[C@H](N(C)C)[C@@H](O)[C@H](O[C@H]3[C@@H](CC=O)C[C@@H](C)[C@@H](O[C@H]4CC[C@H](N(C)C)[C@@H](C)O4)/C=C/C=C/C[C@@H](C)OC(=O)C[C@@H](O)[C@@H]3OC)O[C@@H]2C)C[C@@]1(C)O)C(=O)c1ccc(C(C)(C)C)cc1 | GES1 | cell growth or viability, CCK-8 | 72 h | 2.28 µM
N#Cc1cccc(-c2ccc(=O)n(Cc3cccc(-c4ncc(OCC5CCN(CCCCC(=O)Nc6cccc7c6C(=O)N(C6CCC(=O)NC6=O)C7=O)CC5)cn4)c3)n2)c1 (centres unmarked) | EBC-1 | cell growth or viability, CCK-8 | 72 h | 0.00945 µM
Cc1nn(C)c(O)c1-c1nc2cc(Cl)c(Cl)cc2[nH]c1=O | HEL | cell growth or viability, resazurin | 72 h | 17.9 µM
[Cl][Au-][c]1n(-c2c(C(c3ccccc3)c3ccccc3)cc(C(c3ccccc3)c3ccccc3)cc2C(c2ccccc2)c2ccccc2)c2c([n+]1-c1c(C(c3ccccc3)c3ccccc3)cc(C(c3ccccc3)c3ccccc3)cc1C(c1ccccc1)c1ccccc1)-c1cccc3cccc-2c13 | NTERA2 | cell growth or viability, MTT | 72 h | > 50 µM
CC(=O)c1cnc(N)nc1N1CC[C@H]1c1nn2ccc(Cl)c2c(=O)n1-c1ccccc1 | purified human B cells | cell proliferation | with: anti-IgM | 0.004 µM
Fc1ccc2[nH]c(-c3cc4ccccc4nc3Cl)nc2c1 | L02 | cell growth or viability, MTT | 48 h | > 100 µM
O=C(CCCCC1SCC2NC(=O)NC21)NCCCCC1CNC(=O)C(=O)N1CC1CCCN1CC(CC1CCCCC1)N1CC(Cc2ccc(O)cc2)N(CCc2ccccc2)C(=O)C1=O (centres unmarked) | WM 266-4 | cell growth or viability, ATP luminescence | 72 h | > 100 µM
Cc1cc(C)c([N+]#[C][Pd-2]([Cl])([Cl])[C]#[N+]c2c(C)cc(C)cc2C)c(C)c1 | MRC5 | cell growth or viability | – | > 100 µM
CO[C@@H]1[C@@H](O[C@@H]2O[C@H](C)[C@@H](O[C@H]3C[C@@](C)(O)[C@@H](O)[C@H](C)O3)[C@H](N(C)C)[C@H]2O)[C@@H](CC=O)C[C@@H](C)[C@@H](O[C@H]2CC[C@H](N(C)C)[C@@H](C)O2)/C=C/C=C/C[C@@H](C)OC(=O)C[C@H]1OC(=O)c1ccc(C(C)(C)C)cc1 | GES1 | cell growth or viability, CCK-8 | 72 h | 31.2 µM
COc1ccc2cc3[n+](cc2c1OCc1cn(Cc2c(F)cccc2F)nn1)CCc1cc2c(cc1-3)OCO2 | SMMC-7721 | cell growth or viability, MTT | – | 25.3 µM
CC(C)c1ccc(C[C@H](C)C(=O)NC(=O)N[C@@H]2O[C@H](CO)[C@@H](O)[C@H](O)[C@H]2O)cc1 | human T-lymphocyte | cell growth or viability | 72 h | > 250 µM
COc1c(O)c(Br)c2oc3c(Br)c(O)c(CCC(C)C)c(O)c3c(=O)c2c1CCC(C)C | SMMC-7721 | cell growth or viability | 48 h | 3.98 µM
C1=CCC=C1.[Cl][Au-]1([Cl])[N+](=P(c2ccccc2)(c2ccccc2)[c-]2cccc2)Cc2cccc[n+]21.[Fe+2].[O-][Cl+3]([O-])([O-])[O-] | HEK-293T | cell growth or viability, MTT | 74 h | 32.2 µM
COc1ccc2nc(Cl)c(-c3nc4cc(Cl)c(Cl)cc4[nH]3)cc2c1 | BEL-7404 | cell growth or viability, MTT | 48 h | 21.1 µM
CCCCCC(C)n1c(-c2cccnc2)nc(-c2ccc(C)cc2)c1-c1ccc(C)cc1 (centres unmarked) | BT-474 | cell growth or viability, SRB | 48 h | 39.6 µM
CCCCCCCCCCCCCCOC(=O)Nc1ccn([C@@H]2O[C@H](CO)[C@@H](O)C2(F)F)c(=O)n1 | SU.86.86 | cell growth or viability, MTT | 48 h | 5.73 µM
CCCCCCCCCCn1c(-c2cccnc2)nc(-c2ccc(C)cc2)c1-c1ccc(C)cc1 | BT-474 | cell growth or viability, SRB | 48 h | 93 µM
CC1=C2[O][Ru-]([Cl])[O+]=C2C=CN1CCCCCCCCCCCCN1C=CC2=[O+][Ru-]([Cl])[O]C2=C1C.Cc1ccc(C(C)C)cc1.Cc1ccc(C(C)C)cc1 | 5637-oxo oxoplatin-resistant | crystal violet | 96 h | 1.1 ± 0.8 µM

Some of these lines once more:
SMILES | cell line | assay | conditions | IC50
C=C1C(=O)OC2C1CCC1(C)CC1CCC1(C)OC21 (centres unmarked) | GBM6 | cell growth or viability, resazurin | – | 2.3 µM
COc1ccc(-c2c(C#N)c(N)n(-c3nnc(NC(=O)c4ccccc4)s3)c(=O)c2C#N)cc1 | WI-38 fibroblasts | – | 48 h | 18.6 ± 1.4 µM
CCCCCCCCCCCCn1c(-c2cccnc2)nc(-c2ccc(C)cc2)c1-c1ccc(C)cc1 | BT-474 | cell growth or viability, SRB | 48 h | > 100 µM
N=C(N)NCCC[C@@H](N)C(=O)N[C@@H](CC(=O)N[C@H](Cc1ccccc1)C(=O)N[C@H](CC(=O)O)C(N)=O)c1ccc2ccccc2c1 | BT-474 | cell growth or viability, ATP luminescence | 72 h | > 100 µM
CO[C@@H]1[C@@H](O[C@@H]2O[C@H](C)[C@@H](O[C@H]3C[C@@](C)(O)[C@@H](OC(=O)/C=C/c4ccc(C(F)(F)F)cc4)[C@H](C)O3)[C@H](N(C)C)[C@H]2O)[C@@H](CC=O)C[C@@H](C)[C@@H](O[C@H]2CC[C@H](N(C)C)[C@@H](C)O2)/C=C/C=C/C[C@@H](C)OC(=O)C[C@H]1O | GES1 | cell growth or viability, CCK-8 | 72 h | 2.34 µM
CC(=O)OC[C@H]1O[C@@H](NC(=O)NC(=O)/C=C/c2ccc(-c3ccccc3)cc2)[C@H](OC(C)=O)[C@@H](OC(C)=O)[C@@H]1OC(C)=O | human T-lymphocyte | cell growth or viability | 72 h | 110 µM
COC1=C(OC)C(O)C(CC=C(C)CCC=C(C)CCC=C(C)C(=O)O)C(C)C1=O (centres unmarked) | NCI-H441 | cell growth or viability, MTS | 72 h | > 25 µM
